Assay results gathered from unrelated publications.
Compare with care: the assays were run in different laboratories. Several values in a cell are separate wells, animals, samples, runs or records. ± gives the spread as reported.
Nuclear receptor subfamily 2 group C member 2 ligand-binding domain: Nuclear receptor subfamily 2 group C member 2, ligand-binding domain (Homo sapiens, UniProt P49116)
Sequence of UniProt P49116 (whole entry, looked up): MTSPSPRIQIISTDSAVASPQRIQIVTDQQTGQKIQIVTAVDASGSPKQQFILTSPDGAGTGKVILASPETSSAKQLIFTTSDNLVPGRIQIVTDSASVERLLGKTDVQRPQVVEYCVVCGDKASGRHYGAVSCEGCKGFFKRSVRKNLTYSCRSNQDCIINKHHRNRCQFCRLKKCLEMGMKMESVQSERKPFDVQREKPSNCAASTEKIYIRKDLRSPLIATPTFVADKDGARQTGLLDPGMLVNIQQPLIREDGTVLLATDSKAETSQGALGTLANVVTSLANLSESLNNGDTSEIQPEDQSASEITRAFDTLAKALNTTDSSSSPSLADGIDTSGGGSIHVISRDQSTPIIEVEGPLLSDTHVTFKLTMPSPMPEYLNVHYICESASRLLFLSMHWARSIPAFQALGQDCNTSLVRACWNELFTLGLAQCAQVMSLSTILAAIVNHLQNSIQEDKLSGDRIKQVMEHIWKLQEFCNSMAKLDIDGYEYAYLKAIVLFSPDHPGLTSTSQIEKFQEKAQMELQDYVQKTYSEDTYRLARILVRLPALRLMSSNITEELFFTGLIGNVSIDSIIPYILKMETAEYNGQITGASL
PIAS1: E3 SUMO-protein ligase PIAS1 (PIAS1, Homo sapiens, UniProt O75925)
T1: ssDNA, aptamer; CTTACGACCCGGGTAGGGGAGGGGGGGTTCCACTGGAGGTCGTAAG
Sequence of UniProt P11247 (whole entry, looked up): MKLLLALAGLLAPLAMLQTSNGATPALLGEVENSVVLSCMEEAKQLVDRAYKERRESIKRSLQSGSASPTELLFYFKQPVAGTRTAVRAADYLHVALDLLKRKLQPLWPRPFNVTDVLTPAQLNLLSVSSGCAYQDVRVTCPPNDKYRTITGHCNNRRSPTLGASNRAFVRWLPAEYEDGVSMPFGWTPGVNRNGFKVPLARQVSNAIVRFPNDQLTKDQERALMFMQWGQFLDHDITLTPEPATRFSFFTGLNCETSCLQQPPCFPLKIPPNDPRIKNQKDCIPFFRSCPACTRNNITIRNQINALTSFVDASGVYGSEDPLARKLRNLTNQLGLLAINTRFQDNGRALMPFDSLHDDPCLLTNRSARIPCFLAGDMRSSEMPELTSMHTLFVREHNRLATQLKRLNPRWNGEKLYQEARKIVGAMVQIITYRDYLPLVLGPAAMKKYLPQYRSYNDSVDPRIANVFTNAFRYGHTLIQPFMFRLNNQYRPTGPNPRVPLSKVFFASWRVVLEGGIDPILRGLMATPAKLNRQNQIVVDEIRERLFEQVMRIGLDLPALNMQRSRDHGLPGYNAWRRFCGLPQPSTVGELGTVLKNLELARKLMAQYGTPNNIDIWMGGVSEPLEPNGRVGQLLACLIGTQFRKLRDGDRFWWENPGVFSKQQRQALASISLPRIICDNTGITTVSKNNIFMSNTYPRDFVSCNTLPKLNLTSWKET
Sequence of UniProt Q16774 (whole entry, looked up): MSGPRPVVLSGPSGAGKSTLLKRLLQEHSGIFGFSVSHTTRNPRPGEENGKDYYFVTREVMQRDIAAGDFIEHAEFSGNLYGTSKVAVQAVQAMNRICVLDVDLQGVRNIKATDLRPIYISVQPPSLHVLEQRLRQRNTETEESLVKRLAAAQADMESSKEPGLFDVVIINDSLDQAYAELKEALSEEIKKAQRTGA
Sequence of UniProt P51575 (whole entry, unmodified, looked up): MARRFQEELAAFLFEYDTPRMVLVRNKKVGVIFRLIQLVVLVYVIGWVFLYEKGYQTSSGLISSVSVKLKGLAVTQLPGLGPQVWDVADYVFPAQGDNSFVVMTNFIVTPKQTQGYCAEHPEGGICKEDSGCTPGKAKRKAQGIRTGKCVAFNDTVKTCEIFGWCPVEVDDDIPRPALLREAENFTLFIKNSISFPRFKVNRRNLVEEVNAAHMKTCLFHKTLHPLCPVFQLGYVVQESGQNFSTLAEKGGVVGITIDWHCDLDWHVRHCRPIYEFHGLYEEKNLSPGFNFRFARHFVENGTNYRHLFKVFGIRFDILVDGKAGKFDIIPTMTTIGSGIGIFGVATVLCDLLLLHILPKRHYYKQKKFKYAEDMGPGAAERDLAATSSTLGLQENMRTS
Sequence of UniProt P15924 (whole entry, looked up): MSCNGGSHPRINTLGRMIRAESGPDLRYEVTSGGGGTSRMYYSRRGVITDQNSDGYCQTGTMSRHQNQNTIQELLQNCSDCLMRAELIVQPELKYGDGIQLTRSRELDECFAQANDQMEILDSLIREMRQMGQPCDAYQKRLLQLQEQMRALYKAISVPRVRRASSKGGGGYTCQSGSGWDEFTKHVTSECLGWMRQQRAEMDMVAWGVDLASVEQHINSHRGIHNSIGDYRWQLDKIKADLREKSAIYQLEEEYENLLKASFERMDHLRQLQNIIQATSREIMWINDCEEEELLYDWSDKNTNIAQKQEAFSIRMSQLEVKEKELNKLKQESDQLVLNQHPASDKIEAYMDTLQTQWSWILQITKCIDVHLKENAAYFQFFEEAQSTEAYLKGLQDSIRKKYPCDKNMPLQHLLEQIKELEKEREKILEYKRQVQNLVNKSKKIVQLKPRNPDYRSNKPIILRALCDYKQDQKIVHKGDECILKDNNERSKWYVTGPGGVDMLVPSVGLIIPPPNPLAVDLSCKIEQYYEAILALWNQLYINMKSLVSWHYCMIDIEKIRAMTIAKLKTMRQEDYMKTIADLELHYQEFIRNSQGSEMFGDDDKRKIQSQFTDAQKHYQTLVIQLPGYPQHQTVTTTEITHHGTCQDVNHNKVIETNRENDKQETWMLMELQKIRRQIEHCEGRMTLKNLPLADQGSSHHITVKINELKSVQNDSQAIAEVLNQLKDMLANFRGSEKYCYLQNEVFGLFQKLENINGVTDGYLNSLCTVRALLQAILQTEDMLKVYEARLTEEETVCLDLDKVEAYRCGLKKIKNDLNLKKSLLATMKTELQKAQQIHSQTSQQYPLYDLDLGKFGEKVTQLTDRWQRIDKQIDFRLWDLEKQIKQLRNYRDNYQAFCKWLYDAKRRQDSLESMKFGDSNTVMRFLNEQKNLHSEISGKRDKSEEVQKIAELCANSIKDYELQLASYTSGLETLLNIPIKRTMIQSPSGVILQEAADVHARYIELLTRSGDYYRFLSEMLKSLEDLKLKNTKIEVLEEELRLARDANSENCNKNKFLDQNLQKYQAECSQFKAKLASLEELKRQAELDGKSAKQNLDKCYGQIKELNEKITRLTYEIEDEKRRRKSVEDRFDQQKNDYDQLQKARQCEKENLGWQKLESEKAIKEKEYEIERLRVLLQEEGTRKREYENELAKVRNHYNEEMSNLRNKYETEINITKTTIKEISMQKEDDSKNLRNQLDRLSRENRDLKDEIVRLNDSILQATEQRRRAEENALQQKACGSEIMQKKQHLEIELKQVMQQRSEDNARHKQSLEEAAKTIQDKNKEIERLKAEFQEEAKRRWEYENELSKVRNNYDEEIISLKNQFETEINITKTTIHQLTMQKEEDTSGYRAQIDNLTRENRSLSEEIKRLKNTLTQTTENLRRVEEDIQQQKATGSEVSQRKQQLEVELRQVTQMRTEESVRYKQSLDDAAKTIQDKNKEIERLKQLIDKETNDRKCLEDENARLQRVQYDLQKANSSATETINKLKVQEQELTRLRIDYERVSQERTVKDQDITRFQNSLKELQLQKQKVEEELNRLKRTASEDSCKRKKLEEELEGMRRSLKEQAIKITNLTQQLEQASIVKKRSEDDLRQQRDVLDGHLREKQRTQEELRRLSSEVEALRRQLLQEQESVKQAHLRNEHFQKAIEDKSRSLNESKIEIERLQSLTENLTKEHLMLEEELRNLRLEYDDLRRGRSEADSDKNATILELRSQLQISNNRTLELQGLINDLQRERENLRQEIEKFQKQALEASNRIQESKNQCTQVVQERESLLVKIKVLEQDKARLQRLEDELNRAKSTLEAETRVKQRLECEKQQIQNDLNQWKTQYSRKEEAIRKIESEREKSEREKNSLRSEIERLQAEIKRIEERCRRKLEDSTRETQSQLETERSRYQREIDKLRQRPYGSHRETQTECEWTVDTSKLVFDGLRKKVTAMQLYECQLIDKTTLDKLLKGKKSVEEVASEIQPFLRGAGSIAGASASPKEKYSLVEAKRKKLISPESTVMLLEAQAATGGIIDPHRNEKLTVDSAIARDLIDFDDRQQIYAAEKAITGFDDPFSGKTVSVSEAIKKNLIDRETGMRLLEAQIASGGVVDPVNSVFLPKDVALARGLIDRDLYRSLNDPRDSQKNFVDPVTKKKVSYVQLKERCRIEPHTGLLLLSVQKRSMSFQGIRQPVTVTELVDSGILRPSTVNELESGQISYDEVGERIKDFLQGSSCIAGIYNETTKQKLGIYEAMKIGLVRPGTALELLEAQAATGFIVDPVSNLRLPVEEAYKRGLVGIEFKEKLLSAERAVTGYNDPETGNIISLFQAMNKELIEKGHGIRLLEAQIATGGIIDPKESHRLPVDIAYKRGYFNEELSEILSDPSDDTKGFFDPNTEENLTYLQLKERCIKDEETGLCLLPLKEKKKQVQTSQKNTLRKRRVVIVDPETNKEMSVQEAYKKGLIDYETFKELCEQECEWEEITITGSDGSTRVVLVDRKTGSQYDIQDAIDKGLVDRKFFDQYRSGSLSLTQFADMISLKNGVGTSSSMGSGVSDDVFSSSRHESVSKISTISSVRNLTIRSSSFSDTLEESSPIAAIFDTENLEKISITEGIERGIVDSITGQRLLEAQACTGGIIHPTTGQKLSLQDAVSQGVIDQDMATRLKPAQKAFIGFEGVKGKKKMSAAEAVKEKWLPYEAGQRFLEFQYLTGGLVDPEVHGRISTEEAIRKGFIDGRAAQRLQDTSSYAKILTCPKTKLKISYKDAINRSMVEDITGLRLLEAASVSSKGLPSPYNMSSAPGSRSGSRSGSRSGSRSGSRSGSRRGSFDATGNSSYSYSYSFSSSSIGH
Sequence of UniProt P63208 (whole entry, looked up): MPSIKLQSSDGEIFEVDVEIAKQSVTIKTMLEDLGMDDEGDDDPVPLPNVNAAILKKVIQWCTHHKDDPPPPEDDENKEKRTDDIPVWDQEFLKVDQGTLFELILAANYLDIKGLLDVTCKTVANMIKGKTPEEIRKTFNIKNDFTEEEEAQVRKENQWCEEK

CC1CCCN(C(=O)c2cc3ncccn3n2)C1 (stereo not drawn)
log fold enrichment (S-phase kinase-associated protein 1 (SKP1, Homo sapiens, UniProt P63208); binding, affinity selection mass spectrometry; baseline: other proteins in batch): -0.077

Nc1ncnc2c1ncn2[C@@H]1O[C@H](COP(=O)(O)CP(=O)(O)OP(=O)(O)O)[C@@H](O)[C@H]1O
calcium influx (P2X purinoceptor 1 (P2RX1, Homo sapiens, UniProt P51575, D170A); calcium influx; 1 µM; baseline: ionomycin response): 1.53% and 1.17% and 1.1% and 1.26%

O=C1OC(c2ccccc2)=N/C1=C\c1ccc(O)c(O)c1
Vmax (Pancreatic alpha-amylase (Homo sapiens, UniProt P04746); inhibitor, Lineweaver-Burk; 100 ppm, added: starch substrate): 0.05 mg/mL/min

C=CC(=O)N1CCC(COCC(=O)N2CCN(c3nc(-c4cnc(N)nc4C(F)F)nc(N4CCOC[C@@H]4C)n3)CC2)CC1
remaining binding (CDK14 (Homo sapiens, UniProt O94921); KINOMEscan; 1 µM; baseline: DMSO control): 92%

CC(C)n1c(/C=C/C(O)CC(O)CC(=O)O)c(-c2ccc(F)cc2)c2ccccc21 (stereo not drawn)
metabolic activity (COS-7; WST-8; 10 µM, 24 h, 0.1% DMSO, unit not given; baseline: vehicle control): 0.54 ± 0.42

Nc1ncnc2c1ncn2[C@@H]1O[C@H](COP(=O)(O)OP(=O)(O)OP(=O)(O)O)[C@@H](O)[C@H]1O
Kd (T1, ssDNA, aptamer; ITC): 551 nM

Cc1nc2c(Cl)cccn2c1NC(=O)c1ccc(-c2ccc(N(C)C)cc2)o1
necrotic cells (COS-7; 10 µM, 24 h, 0.1% DMSO, unit not given; baseline: vehicle control): 0.6 ± 0.31

C[S+](CC[C@H](N)C(=O)[O-])C[C@H]1O[C@@H](n2cnc3c(N)ncnc32)[C@H](O)[C@@H]1O (stereo partly drawn)
apparent Km (KMT2C (Homo sapiens, UniProt Q8NEZ4); substrate, enzyme-coupled methylation; added: H3 peptide 800 µM): 20.9 ± 1.8 µM

CNCC[C@@H](Oc1ccccc1C)c1ccccc1
koff (Nuclear receptor subfamily 2 group C member 2 ligand-binding domain; SPR imaging; 600 nM): 3.15e-07 s⁻¹

CCCC[C@H]1CN(c2cccc(OC(F)(F)F)c2)C(=O)CN1Cc1cncn1Cc1ccc(C#N)c(Oc2ccccc2)c1
IC50 (Cryptococcus neoformans farnesyltransferase; enzyme activity, inhibitor, fluorescence; added: 1 µM FPP, 0.5 µM dansylated peptide): 150 ± 60 nM

CC(C)C[C@H](NC(=O)C[C@H](O)[C@H](CC(C)C)NC(=O)[C@H](Cc1c[nH]cn1)NC(=O)CNC(=O)[C@@H](NC(=O)[C@H](C)NC(=O)[C@H](Cc1c[nH]c2ccccc12)NC(=O)[C@H](CCC(N)=O)NC(=O)[C@@H](Cc1ccccc1)NC(=O)COCCOCCNC(=O)CCC(C(=O)O)N1CCN(CC(=O)O)CCN(CC(=O)O)CCN(CC(=O)O)CC1)C(C)C)C(N)=O (stereo partly drawn) [lutetium-177 labelled]
tissue uptake (female BALB/c nu/nu mice, pancreas; intravenous, 50 pmol, 1 h): 4 ± 2 %ID/g

CC(C)OCCn1c(=S)[nH]c(=O)c2[nH]ccc21
MPO activity (Myeloperoxidase (Mus musculus, UniProt P11247); mouse, zymosan or thioglycolate peritonitis, peritoneal fluid; 30 mg/kg; baseline: peritonitis vehicle): 108% and 91.4% and 116%

Cc1ccc(OC[C@@H]2CN(CCN3CCc4ccccc43)CCO2)cn1
inhibition (HTR4 (Homo sapiens, UniProt Q13639); radioligand binding; concentration not given): 2.4%

Cl.O=C1Cc2cc(CCN3CCN(c4nsc5ccccc45)CC3)c(Cl)cc2N1
koff (Nuclear receptor subfamily 2 group C member 2 ligand-binding domain; SPR imaging; 600 nM): 1.99e-07 s⁻¹

CC(=O)c1ccc2cc(S(=O)(=O)Nc3ccccc3)ccc2c1
Hill slope (STAT3 (Homo sapiens, UniProt P40763); tyrosine phosphorylation, inhibitor, ELISA, refers to: phospho-Tyr705): -0.454

O=C(O)c1ccccc1OC1=NS(=O)(=O)c2ccccc21
activity (PKLR (Homo sapiens, UniProt P30613); enzyme activity, activator; 10 µM): inactive

O=C1CSC(=S)N1NC(=S)SSC(=S)NN1C(=O)CSC1=S
positive cells (PTPN22 (Homo sapiens, UniProt Q9Y2R2); inhibitor, phospho-flow cytometry; 25 µM, added: TCR stimulation; baseline: DMSO): 12.5%

O=C(O)c1cc2c(c3nc4c(O)cccc4nc13)O[C@@H]1[C@H](O)c3nc4cccc(O)c4nc3C[C@H]21
Hill slope (Eukaryotic translation initiation factor 4E, with 4E-BP1 (EIF4E, Homo sapiens, UniProt P06730); click chemistry enzyme-linked): ~-1

O=[N+]([O-])c1cc(C(F)(F)F)ccc1NCc1ccsc1
ΔG (Endothelial PAS domain-containing protein 1, PAS-B domain (EPAS1, Homo sapiens, UniProt Q99814, N288Q); binding, ITC, reverse mode): -8.25 ± 0.35 kcal/mol

O=C(COP(=O)(O)O)[C@@H](O)[C@H](O)[C@H](O)COP(=O)(O)O
thermal stability ratio (Desmoplakin (DSP, Homo sapiens, UniProt P15924); thermal proteome profiling; HepG2 cell lysate; concentration not given, 57 over 37 °C; baseline: compound over control): 0.467 and 0.444 and 0.7

COc1c(O)c(C)cc2c1C(=O)c1c(O)cccc1C2=O
cell viability (HepaRG co-cultured with HK-2; MTT; 266.67 µM, 24 h; baseline: untreated control): 35.8 ± 16.4%

CN(C(=O)n1cnc(-c2ccc[n+]([O-])c2)c1)C1CCCCC1
ED50 (Faah (Mus musculus, UniProt O08914); enzyme activity, inhibitor; NMRI mice, brain; oral, 8 h): ~0.027 mg/kg

O=c1c(-c2ccc(O)cc2)coc2cc(O)cc(O)c12
koff (Nuclear receptor subfamily 2 group C member 2 ligand-binding domain; SPR imaging; 600 nM): 7.62e-07 s⁻¹

CC[C@@H]1[C@H](F)C(=O)N[C@@H]1COc1nccc2cc(C(N)=O)c(OC)cc12
inhibition (RPS6KA3 (Homo sapiens, UniProt P51812); ATP probe binding, KiNativ profiling, refers to: domain 2 Lys2 site; THP-1 cell lysate; 0.2 mM): -3.7%

CC[S+]([O-])c1nc(-c2ccccc2)cc(C(F)(F)F)n1 (stereo not drawn)
cells with nuclear reporter (Exportin-1 (XPO1, Homo sapiens, UniProt O14980); nuclear export, high content imaging; HeLa Kyoto reporter; 5 µM, 2 h): 2.94% and 3.46% and 0.98%

O=C(O)c1cc(O)c2c(c1)C(=O)c1cccc(O)c1C2=O
cell viability (HepaRG co-cultured with HK-2; MTT; 16.67 µM, 48 h; baseline: untreated control): 106 ± 19.4%

Nc1nc2c(ncn2[C@@H]2O[C@H](COP(=O)(O)O)[C@@H](O)[C@H]2O)c(=O)[nH]1
reaction velocity (GUK1 (Homo sapiens, UniProt Q16774); enzyme activity, NADH-coupled; 500 µM, added: KCl 50 mM): 0.126 µM/s and 0.119 µM/s and 0.112 µM/s

N[C@H](COP(=O)(O)O)Cc1c[nH]cn1
Km (Beta2; substrate, coupled phosphate release): 340 ± 63 µM

Cc1cccc(N2CC(C(=O)O)CC2=O)c1 (stereo not drawn)
fold enrichment (PIAS1; binding, affinity selection mass spectrometry; baseline: other proteins in batch): 0.947

O=C(O)c1cccnc1
koff (Nuclear receptor subfamily 2 group C member 2 ligand-binding domain; binding): 9.14e-06 s⁻¹

CC(C)C[C@@H]1NC(=O)[C@H](C(C)C)NC(=O)CNC(=O)[C@H](CC(N)=O)NC(=O)[C@@H]2CCCN2C(=O)[C@H](Cc2ccc(O)cc2)NC(=O)[C@H](CCCNC(=N)N)NC(=O)[C@H](Cc2ccccc2)NC(=O)[C@@H](NC(=O)[C@H](CCCCN)NC(=O)[C@@H]2CCCN2C(=O)[C@H](C)NC(=O)[C@H](C)NC(=O)[C@@H](N)Cc2ccc(O)cc2)CSSC[C@@H](C(=O)N[C@H](C(N)=O)[C@@H](C)O)NC(=O)[C@H](C)NC1=O
-TΔS (Alpha-2-HS-glycoprotein, asialo (AHSG, Bos taurus, UniProt P12763); binding, isothermal titration calorimetry; pH 7.0, 25 °C, added: asialofetuin): -3.97 kcal/mol

COCCC(=O)N1CCC(Oc2ccccc2)C1 (stereo not drawn)
log fold enrichment (PIAS1; binding, affinity selection mass spectrometry; baseline: other proteins in batch): 0.0516

Nc1[nH]nc2nnc(-c3c(-c4ccccc4)nn4ccccc34)cc12
kinase activity (MAPK3 (Homo sapiens, UniProt P27361); ADP-Glo; 10 µM, added: MBP substrate): 14.2% and 14.6% and 11.6%

Repeated from above:
CC1CCCN(C(=O)c2cc3ncccn3n2)C1 (stereo not drawn)
log fold enrichment (S-phase kinase-associated protein 1 (SKP1, Homo sapiens, UniProt P63208); binding, affinity selection mass spectrometry; baseline: other proteins in batch): -0.077

Nc1ncnc2c1ncn2[C@@H]1O[C@H](COP(=O)(O)CP(=O)(O)OP(=O)(O)O)[C@@H](O)[C@H]1O
calcium influx (P2X purinoceptor 1 (P2RX1, Homo sapiens, UniProt P51575, D170A); calcium influx; 1 µM; baseline: ionomycin response): 1.53% and 1.17% and 1.1% and 1.26%

C[S+](CC[C@H](N)C(=O)[O-])C[C@H]1O[C@@H](n2cnc3c(N)ncnc32)[C@H](O)[C@@H]1O (stereo partly drawn)
apparent Km (KMT2C (Homo sapiens, UniProt Q8NEZ4); substrate, enzyme-coupled methylation; added: H3 peptide 800 µM): 20.9 ± 1.8 µM

O=C(O)c1cccnc1
koff (Nuclear receptor subfamily 2 group C member 2 ligand-binding domain; binding): 9.14e-06 s⁻¹

O=[N+]([O-])c1cc(C(F)(F)F)ccc1NCc1ccsc1
ΔG (Endothelial PAS domain-containing protein 1, PAS-B domain (EPAS1, Homo sapiens, UniProt Q99814, N288Q); binding, ITC, reverse mode): -8.25 ± 0.35 kcal/mol
